{"data": "Published values gathered from unrelated publications", "note": "Every numbered part comes from another study and shows a few of its results, in no order.", "chain of UniProt Q8NE63 (whole entry, looked up)": "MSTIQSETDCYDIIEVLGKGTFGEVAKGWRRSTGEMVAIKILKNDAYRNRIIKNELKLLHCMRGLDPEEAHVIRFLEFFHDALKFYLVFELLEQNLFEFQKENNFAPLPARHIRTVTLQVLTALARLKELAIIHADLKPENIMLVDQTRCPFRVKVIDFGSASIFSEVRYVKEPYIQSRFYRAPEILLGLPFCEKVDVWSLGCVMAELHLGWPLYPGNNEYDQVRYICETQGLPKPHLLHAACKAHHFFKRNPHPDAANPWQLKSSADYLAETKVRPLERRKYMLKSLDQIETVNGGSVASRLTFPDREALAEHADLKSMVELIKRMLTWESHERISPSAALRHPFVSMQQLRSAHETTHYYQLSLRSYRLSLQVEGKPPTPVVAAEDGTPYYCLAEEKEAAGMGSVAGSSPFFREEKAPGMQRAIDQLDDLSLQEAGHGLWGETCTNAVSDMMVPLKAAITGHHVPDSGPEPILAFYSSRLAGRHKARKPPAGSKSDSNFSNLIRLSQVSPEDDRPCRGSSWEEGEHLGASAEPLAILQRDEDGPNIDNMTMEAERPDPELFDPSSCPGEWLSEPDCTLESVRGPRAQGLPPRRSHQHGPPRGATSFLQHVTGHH", "chain of UniProt P37023 (whole entry, looked up)": "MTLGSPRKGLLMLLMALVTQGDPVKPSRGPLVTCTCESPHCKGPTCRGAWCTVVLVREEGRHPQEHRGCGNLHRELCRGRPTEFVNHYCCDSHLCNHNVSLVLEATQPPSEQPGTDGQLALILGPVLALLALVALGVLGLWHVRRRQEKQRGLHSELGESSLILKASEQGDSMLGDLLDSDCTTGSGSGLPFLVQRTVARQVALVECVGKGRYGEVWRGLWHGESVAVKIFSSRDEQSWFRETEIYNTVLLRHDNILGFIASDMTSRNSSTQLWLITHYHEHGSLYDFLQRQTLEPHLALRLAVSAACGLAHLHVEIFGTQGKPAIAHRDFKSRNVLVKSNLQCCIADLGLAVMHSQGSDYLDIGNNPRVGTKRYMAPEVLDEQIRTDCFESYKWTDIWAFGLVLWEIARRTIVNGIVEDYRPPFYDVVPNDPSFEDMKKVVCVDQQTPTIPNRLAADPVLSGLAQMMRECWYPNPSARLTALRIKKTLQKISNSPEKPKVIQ", "chain of UniProt O75747 (whole entry, looked up)": "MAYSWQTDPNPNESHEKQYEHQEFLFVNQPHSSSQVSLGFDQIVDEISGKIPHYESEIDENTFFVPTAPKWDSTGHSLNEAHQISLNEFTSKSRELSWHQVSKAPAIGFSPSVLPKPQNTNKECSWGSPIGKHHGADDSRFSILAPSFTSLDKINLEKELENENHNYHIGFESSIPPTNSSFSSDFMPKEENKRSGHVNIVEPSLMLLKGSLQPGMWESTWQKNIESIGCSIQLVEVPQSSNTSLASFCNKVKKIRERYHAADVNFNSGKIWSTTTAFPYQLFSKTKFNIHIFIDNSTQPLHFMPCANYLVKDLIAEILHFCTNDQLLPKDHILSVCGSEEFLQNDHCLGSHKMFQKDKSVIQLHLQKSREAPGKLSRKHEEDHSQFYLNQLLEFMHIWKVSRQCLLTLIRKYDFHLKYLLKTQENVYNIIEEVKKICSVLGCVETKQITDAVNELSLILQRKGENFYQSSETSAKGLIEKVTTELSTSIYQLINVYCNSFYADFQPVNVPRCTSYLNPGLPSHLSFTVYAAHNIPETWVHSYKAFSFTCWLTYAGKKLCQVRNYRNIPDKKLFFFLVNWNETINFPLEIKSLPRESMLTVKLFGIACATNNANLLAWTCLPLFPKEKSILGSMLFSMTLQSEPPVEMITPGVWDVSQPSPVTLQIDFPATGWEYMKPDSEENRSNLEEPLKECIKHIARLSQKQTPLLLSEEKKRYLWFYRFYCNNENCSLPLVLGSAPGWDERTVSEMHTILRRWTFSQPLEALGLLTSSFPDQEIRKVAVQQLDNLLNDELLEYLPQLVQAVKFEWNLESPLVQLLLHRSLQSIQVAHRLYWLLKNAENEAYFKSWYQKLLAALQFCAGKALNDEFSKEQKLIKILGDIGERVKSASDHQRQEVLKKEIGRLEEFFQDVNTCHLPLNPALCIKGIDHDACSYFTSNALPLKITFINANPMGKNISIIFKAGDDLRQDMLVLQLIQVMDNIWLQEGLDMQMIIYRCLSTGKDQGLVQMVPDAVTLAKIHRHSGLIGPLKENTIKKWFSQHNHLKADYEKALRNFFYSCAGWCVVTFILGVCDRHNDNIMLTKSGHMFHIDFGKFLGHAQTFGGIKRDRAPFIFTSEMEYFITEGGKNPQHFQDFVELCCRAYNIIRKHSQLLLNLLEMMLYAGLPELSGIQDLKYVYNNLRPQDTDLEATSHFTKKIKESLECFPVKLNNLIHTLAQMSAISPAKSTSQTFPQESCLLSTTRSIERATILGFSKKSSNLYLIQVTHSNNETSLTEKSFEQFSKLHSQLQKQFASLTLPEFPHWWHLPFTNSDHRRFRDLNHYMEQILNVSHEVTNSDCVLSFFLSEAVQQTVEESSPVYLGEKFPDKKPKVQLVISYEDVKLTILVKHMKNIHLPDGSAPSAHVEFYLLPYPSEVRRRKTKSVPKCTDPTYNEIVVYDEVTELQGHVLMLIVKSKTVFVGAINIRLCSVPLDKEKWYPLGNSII", "chain of UniProt Q8TBX8 (whole entry, looked up)": "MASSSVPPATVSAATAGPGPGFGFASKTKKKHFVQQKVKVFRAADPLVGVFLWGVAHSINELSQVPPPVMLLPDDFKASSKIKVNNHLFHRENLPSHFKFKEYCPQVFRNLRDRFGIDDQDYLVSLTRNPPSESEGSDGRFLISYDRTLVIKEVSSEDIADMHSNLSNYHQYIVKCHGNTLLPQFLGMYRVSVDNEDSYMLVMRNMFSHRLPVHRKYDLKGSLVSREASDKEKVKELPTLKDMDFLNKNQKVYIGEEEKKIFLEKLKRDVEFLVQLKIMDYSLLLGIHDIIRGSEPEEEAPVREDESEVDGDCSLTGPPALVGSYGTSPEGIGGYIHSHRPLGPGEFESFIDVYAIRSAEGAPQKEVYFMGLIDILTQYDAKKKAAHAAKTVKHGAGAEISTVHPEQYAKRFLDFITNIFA", "chain of UniProt Q9UM73 (whole entry, unmodified, looked up)": "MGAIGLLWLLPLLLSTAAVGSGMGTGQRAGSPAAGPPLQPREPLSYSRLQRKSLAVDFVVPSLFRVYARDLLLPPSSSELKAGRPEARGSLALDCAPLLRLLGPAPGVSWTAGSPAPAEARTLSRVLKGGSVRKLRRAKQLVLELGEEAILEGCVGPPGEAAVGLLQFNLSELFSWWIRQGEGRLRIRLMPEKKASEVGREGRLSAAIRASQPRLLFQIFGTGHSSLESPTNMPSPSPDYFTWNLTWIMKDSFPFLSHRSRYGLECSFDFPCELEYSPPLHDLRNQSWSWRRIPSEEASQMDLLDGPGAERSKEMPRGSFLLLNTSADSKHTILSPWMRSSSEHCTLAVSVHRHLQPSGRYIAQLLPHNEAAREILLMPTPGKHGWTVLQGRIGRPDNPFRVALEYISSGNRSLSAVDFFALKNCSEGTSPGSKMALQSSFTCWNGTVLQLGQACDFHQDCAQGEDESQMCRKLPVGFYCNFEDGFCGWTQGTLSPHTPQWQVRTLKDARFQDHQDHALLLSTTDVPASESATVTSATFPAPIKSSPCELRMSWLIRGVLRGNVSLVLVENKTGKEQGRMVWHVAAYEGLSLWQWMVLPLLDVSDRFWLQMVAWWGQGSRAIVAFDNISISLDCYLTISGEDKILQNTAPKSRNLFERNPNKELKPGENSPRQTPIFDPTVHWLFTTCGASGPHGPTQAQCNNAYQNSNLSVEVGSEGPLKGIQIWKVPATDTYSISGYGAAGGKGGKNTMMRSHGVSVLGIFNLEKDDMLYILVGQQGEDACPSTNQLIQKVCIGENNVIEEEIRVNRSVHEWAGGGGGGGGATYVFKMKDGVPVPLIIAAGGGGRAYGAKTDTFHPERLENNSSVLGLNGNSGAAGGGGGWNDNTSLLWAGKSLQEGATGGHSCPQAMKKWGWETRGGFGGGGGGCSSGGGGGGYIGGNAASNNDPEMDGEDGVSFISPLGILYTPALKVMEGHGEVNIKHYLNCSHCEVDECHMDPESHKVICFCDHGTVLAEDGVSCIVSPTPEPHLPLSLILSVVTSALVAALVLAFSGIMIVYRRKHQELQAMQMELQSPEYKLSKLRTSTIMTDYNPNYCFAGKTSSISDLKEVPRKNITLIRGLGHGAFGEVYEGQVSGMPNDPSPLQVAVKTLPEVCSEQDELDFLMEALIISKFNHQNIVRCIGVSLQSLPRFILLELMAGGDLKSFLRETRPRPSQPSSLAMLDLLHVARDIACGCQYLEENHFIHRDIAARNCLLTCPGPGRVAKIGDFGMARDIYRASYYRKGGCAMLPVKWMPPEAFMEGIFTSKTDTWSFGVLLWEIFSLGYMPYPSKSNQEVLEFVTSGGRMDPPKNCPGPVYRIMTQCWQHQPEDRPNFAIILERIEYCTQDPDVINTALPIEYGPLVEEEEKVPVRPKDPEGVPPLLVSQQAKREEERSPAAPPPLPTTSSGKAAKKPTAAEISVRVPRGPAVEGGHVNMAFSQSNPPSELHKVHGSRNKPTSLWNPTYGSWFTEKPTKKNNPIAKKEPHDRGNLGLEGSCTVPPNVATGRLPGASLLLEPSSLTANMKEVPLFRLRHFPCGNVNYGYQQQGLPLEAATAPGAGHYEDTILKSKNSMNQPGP"}
{"data": "Series 1", "SMILES": "O=C(NS(=O)(=O)c1ccc(NCC2CCOCC2)c([N+](=O)[O-])c1)c1ccc(N2CCN(Cc3ccc(C(F)(F)F)cc3-c3ccc(Cl)cc3)CC2)cc1Oc1cnc2[nH]ccc2c1", "concentration": "1 µM"}
{"target": "Activin receptor type-1-like (ACVRL1, Homo sapiens, UniProt P37023)", "read-out": "cell-free assay", "method": "competition with immobilised ligand", "remaining binding [%]": 77}
{"target": "Homeodomain-interacting protein kinase 4 (HIPK4, Homo sapiens, UniProt Q8NE63)", "read-out": "cell-free assay", "method": "competition with immobilised ligand", "remaining binding [%]": 98}
{"target": "Tyrosine-protein kinase Fgr (FGR, Homo sapiens, UniProt P09769)", "read-out": "cell-free assay", "method": "competition with immobilised ligand", "remaining binding [%]": 100}
{"target": "Phosphatidylinositol 5-phosphate 4-kinase type-2 gamma (PIP4K2C, Homo sapiens, UniProt Q8TBX8)", "read-out": "cell-free assay", "method": "competition with immobilised ligand", "remaining binding [%]": 100}
{"target": "ALK tyrosine kinase receptor (ALK, Homo sapiens, UniProt Q9UM73, L1196M)", "read-out": "cell-free assay", "method": "competition with immobilised ligand", "remaining binding [%]": 100}
{"target": "Serine/threonine-protein kinase PLK4 (PLK4, Homo sapiens, UniProt O00444)", "read-out": "cell-free assay", "method": "competition with immobilised ligand", "remaining binding [%]": 98}
{"target": "Phosphatidylinositol 4,5-bisphosphate 3-kinase catalytic subunit alpha isoform (PIK3CA, Homo sapiens, UniProt P42336, M1043I)", "read-out": "cell-free assay", "method": "competition with immobilised ligand", "remaining binding [%]": 51}
{"target": "Serine/threonine-protein kinase MAK (MAK, Homo sapiens, UniProt P20794)", "read-out": "cell-free assay", "method": "competition with immobilised ligand", "remaining binding [%]": 97}
{"target": "Protein kinase C iota type (PRKCI, Homo sapiens, UniProt P41743)", "read-out": "cell-free assay", "method": "competition with immobilised ligand", "remaining binding [%]": 100}
{"target": "Phosphatidylinositol 3-kinase C2 domain-containing subunit gamma (PIK3C2G, Homo sapiens, UniProt O75747)", "read-out": "cell-free assay", "method": "competition with immobilised ligand", "remaining binding [%]": 80}
{"target": "Serine/threonine-protein kinase MRCK gamma (CDC42BPG, Homo sapiens, UniProt Q6DT37)", "method": "competition binding", "remaining binding [%]": 100}
{"data": "Series 2", "species": "mouse", "medium": "microsomes or S9", "concentration": "2 µM", "time": "0.5 h"}
{"Structure (SMILES)": "Cc1cc(C(C)(C)C)cc(C)c1CS(=O)(=O)CCCO", "remaining compound [%]": 18.4}
{"Structure (SMILES)": "CNc1nc(Nc2ccccc2C)c(C#N)c2c1COC(C)(C)C2", "remaining compound [%]": 5.01}
{"Structure (SMILES)": "CCCC(C(=O)O)c1c(C)ncnc1-c1cc(F)c2c(c1C)CCCO2 (centres unmarked)", "remaining compound [%]": "> 99"}
{"data": "Series 3", "target": "Probable WRKY transcription factor 33, N-terminal DNA-binding domain (WRKY33, Arabidopsis thaliana, UniProt Q8S8P5, residues 169-264)", "method": "DNA-protein interaction ELISA", "form": "double-stranded DNA, one strand shown", "medium": "in vitro, bacterial lysate", "concentration": "not given", "setting": "whole dsDNA probe, crude lysate protein", "reference": "highest signal in screen", "direction": "higher = stronger binding", "Residues (chain)": "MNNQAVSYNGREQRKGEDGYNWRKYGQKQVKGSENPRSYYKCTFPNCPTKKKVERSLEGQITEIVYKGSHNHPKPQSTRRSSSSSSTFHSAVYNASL"}
{"Oligonucleotide": "AAAAAACGCAACTCCGGATGTGGGGTAAAA", "relative absorbance": "14.6 % of maximum"}
{"Oligonucleotide": "AAAAAAATCCCACTTCATTCTAAAAA", "relative absorbance": "20.7 % of maximum"}
{"Oligonucleotide": "AAAAAAGGTGAGGAAGTTGGGTATGGAAAA", "relative absorbance": "21 % of maximum"}
{"Oligonucleotide": "AAAAAATGTATTCGTGTCCACTCCATAAAA", "relative absorbance": "15.4 % of maximum"}
{"Oligonucleotide": "AAAAAAGTTATTATACCTGATCTCGCAAAA", "relative absorbance": "25.4 % of maximum"}
{"Oligonucleotide": "AAAAAAAGTATCAAAGCCTAGGGCTGAAAA", "relative absorbance": "18 % of maximum"}
{"Oligonucleotide": "AAAAAACCGCTTACATTGCGTTGTCGAAAA", "relative absorbance": "30.5 % of maximum"}
{"Oligonucleotide": "AAAAAATCGCGTCCGTGCTCAATCCAAAAA", "relative absorbance": "21.6 % of maximum"}
{"data": "Single results of other studies"}
{"Compound": "O=C(Nc1cnn(-c2csc(C(=O)NC3COC3)c2)c1)Nc1c(F)cccc1Cl", "target": "Ribosomal protein S6 kinase alpha-4 (RPS6KA4, Homo sapiens, UniProt O75676)", "read-out": "enzyme activity", "concentration": "5 µM", "reference": "untreated control", "measurement": "remaining activity", "value": "99.3%"}
{"note": "Repeated from above (series 2):"}
{"Structure (SMILES)": "Cc1cc(C(C)(C)C)cc(C)c1CS(=O)(=O)CCCO", "remaining compound [%]": 18.4}
{"Structure (SMILES)": "CNc1nc(Nc2ccccc2C)c(C#N)c2c1COC(C)(C)C2", "remaining compound [%]": 5.01}
{"Structure (SMILES)": "CCCC(C(=O)O)c1c(C)ncnc1-c1cc(F)c2c(c1C)CCCO2 (centres unmarked)", "remaining compound [%]": "> 99"}
